Assay results of several laboratories.
Several values in a cell are separate wells, animals, samples, runs or records. ± marks the error that the study gave.
Genome polyprotein NS3 helicase domain: Genome polyprotein, NS3 helicase domain (Hepatitis C virus genotype 1b, UniProt Q9WMX2)
WD repeat-containing protein 91 WD40 domain, residues 392–747: WD repeat-containing protein 91, WD40 domain, residues 392–747 (Homo sapiens, UniProt A4D1P6)
Chain of UniProt P51575 (whole entry, looked up): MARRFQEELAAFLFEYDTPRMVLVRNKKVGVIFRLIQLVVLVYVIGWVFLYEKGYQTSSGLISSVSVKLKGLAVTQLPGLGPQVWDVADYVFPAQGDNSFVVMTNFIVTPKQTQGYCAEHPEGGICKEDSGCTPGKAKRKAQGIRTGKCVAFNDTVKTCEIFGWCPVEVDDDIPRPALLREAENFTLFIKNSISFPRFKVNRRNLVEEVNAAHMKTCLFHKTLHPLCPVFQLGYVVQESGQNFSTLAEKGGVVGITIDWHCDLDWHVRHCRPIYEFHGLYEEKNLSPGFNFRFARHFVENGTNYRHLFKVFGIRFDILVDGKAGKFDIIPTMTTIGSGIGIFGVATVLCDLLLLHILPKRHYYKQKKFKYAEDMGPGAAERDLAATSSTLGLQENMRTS
Chain of UniProt A4D1P6 (whole entry, looked up): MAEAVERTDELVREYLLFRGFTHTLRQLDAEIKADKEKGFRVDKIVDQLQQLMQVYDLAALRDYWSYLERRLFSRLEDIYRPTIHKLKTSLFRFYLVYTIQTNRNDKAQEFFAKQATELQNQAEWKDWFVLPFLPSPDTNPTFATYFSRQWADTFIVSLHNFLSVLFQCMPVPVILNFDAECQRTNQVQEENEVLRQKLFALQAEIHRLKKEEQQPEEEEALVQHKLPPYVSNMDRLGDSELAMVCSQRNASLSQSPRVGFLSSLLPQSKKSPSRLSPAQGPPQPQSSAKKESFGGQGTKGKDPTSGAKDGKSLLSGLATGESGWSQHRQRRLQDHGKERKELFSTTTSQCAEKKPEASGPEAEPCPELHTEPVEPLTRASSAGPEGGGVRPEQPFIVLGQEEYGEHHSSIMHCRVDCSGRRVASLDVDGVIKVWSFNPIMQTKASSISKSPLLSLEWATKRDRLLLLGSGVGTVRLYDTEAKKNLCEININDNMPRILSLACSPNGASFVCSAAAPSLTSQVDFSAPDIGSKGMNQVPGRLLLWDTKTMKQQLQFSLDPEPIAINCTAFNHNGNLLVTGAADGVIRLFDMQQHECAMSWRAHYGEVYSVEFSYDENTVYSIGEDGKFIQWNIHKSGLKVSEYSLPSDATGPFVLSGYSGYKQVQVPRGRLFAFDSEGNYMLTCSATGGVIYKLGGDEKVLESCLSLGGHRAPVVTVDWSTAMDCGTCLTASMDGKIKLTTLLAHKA
Chain of UniProt Q92570 (whole entry, looked up): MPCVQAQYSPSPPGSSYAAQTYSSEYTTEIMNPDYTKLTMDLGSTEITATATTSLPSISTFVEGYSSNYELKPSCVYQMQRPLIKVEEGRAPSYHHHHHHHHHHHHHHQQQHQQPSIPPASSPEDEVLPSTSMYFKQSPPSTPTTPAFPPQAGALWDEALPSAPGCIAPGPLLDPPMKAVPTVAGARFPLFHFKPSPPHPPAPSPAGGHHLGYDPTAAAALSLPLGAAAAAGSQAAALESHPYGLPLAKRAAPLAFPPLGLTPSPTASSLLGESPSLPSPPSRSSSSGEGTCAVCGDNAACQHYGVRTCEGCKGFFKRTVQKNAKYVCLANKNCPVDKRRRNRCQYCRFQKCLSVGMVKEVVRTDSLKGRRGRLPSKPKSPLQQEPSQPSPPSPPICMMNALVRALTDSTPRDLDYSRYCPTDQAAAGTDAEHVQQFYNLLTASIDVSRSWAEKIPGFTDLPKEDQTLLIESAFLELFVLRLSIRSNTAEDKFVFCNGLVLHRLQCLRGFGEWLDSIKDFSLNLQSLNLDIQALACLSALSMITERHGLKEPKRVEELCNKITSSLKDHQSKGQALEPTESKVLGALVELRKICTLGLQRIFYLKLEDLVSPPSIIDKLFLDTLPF
Chain of UniProt Q16774 (whole entry, unmodified, looked up): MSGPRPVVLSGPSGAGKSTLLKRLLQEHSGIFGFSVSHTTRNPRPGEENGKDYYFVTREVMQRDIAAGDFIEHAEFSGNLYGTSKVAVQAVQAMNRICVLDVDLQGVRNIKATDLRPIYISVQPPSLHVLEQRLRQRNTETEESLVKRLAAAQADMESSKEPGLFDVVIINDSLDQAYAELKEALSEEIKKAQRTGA

SMILES | target or system | assay | test system | conditions | scale | measurement | result
Nc1ccc(S(=O)(=O)Nc2ccnn2-c2ccccc2)cc1 | Genome polyprotein NS3 helicase domain | DNA binding, inhibitor | hepatitis C virus | 100 µM, added: Cy5-dT15 DNA | – | inhibition | 1%
O=C1Nc2ccc(-c3ccc4cc(O)ccc4c3)cc2/C1=C\c1ccc(N2CCOCC2)cc1 | FGFR2 (Homo sapiens, UniProt P21802) | calculated from IC50 | – | – | – | binding free energy | -11.2 kcal/mol
Nc1ccc(C(=O)O)cc1 | N-alpha-acetyltransferase 80 (NAA80, Homo sapiens, UniProt Q93015) | substrate, DTNB | – | 2 mM, 30 min, 37 °C, added: acetyl-CoA 500 µM | – | product formation | -4.12 µM
Cc1cccc(N2CC(C(=O)O)CC2=O)c1 (stereo not drawn) | Transducin-like enhancer protein 4 (TLE4, Homo sapiens, UniProt Q04727) | binding, affinity selection mass spectrometry | – | – | baseline: other proteins in batch | fold enrichment | 0.716
CN1CCc2ccc(C(=O)N3CCN(C(=O)C4CCC(C#N)CC4)CC3)cc2C1 (stereo not drawn) | WD repeat-containing protein 91 WD40 domain, residues 392–747 | binding, SPR single-concentration screen | – | 45 µM | – | SPR response | -2.2 RU and -4 RU
O=c1ccn([C@@H]2O[C@H](COP(=O)(O)OP(=O)(O)O)[C@@H](O)[C@H]2O)c(=O)[nH]1 | ABO (Homo sapiens, UniProt P16442, G235S/G268A/L266M/R176G/W181M) | methyl-TROSY NMR titration lineshape analysis | – | apo mutant enzyme | – | koff | 1050 ± 60 s⁻¹
Nc1ccccc1C(=O)/C=C/c1cccc([N+](=O)[O-])c1 | Bax inhibitor 1 (TMBIM6, Homo sapiens, UniProt P55061) | protein conformation | – | – | – | conformation | no effect
CC(C)NCC(O)COc1cccc2ccccc12 (stereo not drawn) | Glutamate receptor 2 (Homo sapiens, UniProt P42262) | ion current, agonist, SyncroPatch patch clamp | HEK293 | 10 µM | – | activation | 4%
C=CC(=O)N1CCC(COCC(=O)N2CCN(c3nc(-c4cnc(N)nc4C(F)F)nc(N4CCOC[C@@H]4C)n3)CC2)CC1 | DCLK2 (Homo sapiens, UniProt Q8N568) | KINOMEscan | – | 1 µM | – | remaining binding | 92%
CCN1CCC[C@H]1CNC(=O)c1c(O)c(Cl)cc(Cl)c1OC | LPAR5 (Homo sapiens, UniProt Q9H1C0) | β-arrestin recruitment, TANGO luminescence, refers to: GPR92 | – | concentration not given | baseline: basal luminescence | log2 fold change | 0.373
COc1cc2nc(N3CCCN(C)CC3)nc(NC3CCN(Cc4ccccc4)CC3)c2cc1OC | Genome polyprotein NS3 helicase domain | DNA binding, inhibitor | hepatitis C virus | 100 µM, added: Cy5-dT15 DNA | – | inhibition | 3%
CC(NC(=O)CCCc1ccc2ccc3cccc4ccc1c2c34)C(=O)NO (stereo not drawn) | HDAC8 (Homo sapiens, UniProt Q9BY41) | ITC | Tris-HCl buffer | 283 K | – | TΔS° | 7.3 kcal/mol
CN/C(=N/CCSCc1nc[nH]c1C)NC#N | Genome polyprotein NS3 helicase domain | – | – | 100 µM | – | inhibition | 0%
O=C(CCl)N1N=C(c2ccc(Br)cc2)CC1c1ccc(Br)cc1 (stereo not drawn) | 14-3-3 protein sigma, with ERα phosphopeptide (SFN, Homo sapiens, UniProt P31947) | binding, fluorescence polarization | – | covalent ligand screen, added: phosphorylated ERalpha peptide | baseline: control | FP signal | 93%
N#CC1CCN(C(=O)c2ccc(CSc3nc4ccccc4s3)cc2)CC1 | WD repeat-containing protein 91 WD40 domain, residues 392–747 | SPR | – | 45 µM | – | binding | 18% and 33%
Cn1cc(-c2ccc(-c3cncc(Cl)c3N3CCC4(CCNC4=O)CC3)cc2)cn1 | COLO 205 | gene expression, microarray, refers to: CFL2 mRNA | – | concentration not given, 6 h | baseline: untreated cells | log2 fold change | -1.72
CC[C@@H]1[C@H](F)C(=O)N[C@@H]1COc1nccc2cc(C(N)=O)c(OC)cc12 | WEE1 (Homo sapiens, UniProt P30291) | ATP-site probe binding, ActivX profiling | THP-1 cell lysate | 0.01 mM, Lys2 site | – | inhibition | 25.6%
O=C(COP(=O)(O)O)[C@@H](O)[C@H](O)[C@H](O)COP(=O)(O)O | Villin-1 (Homo sapiens, UniProt P09327) | thermal proteome profiling, refers to: VIL1 | HepG2 cell lysate | concentration not given, 57 over 37 °C, mean | baseline: compound over control | thermal stability ratio | 0.638

SMILES | target or system | assay | test system | conditions | scale | measurement | result
CC[C@H](C)[C@H](NC(=O)[C@H](CCCCN)NC(=O)CNC(=O)[C@@H](NC(=O)[C@@H](NC(=O)[C@H](CCSC)NC(=O)[C@H](Cc1c[nH]cn1)NC(=O)CN)[C@@H](C)O)C(C)C)C(=O)N[C@@H](Cc1ccc(O)cc1)C(=O)N[C@@H](C)C(=O)N[C@@H](C)C(=O)N[C@@H](CCSC)C(=O)N[C@@H](CCSC)C(=O)N[C@@H](C)C(=O)N[C@@H](CCSC)C(=O)N[C@@H](CCC(=O)O)C(=O)N[C@@H](Cc1ccc(O)cc1)C(=O)N[C@@H](Cc1ccc(O)cc1)C(=O)N[C@@H](CCCNC(=N)N)C(=O)N[C@@H](CCC(N)=O)C(=O)N[C@@H](CO)C(=O)N[C@@H](CCCCN)C(=O)N[C@@H](C)C(=O)N[C@@H](CCCCN)C(=O)N[C@@H](CCCCN)C(=O)N[C@@H](CC(C)C)C(=O)N[C@@H](CCC(N)=O)C(=O)N[C@@H](C)C(=O)N[C@@H](CCSC)C(=O)N[C@@H](CCCNC(=N)N)C(=O)O | Calmodulin-1, Ca2+-bound C-lobe (CALM1, Homo sapiens, UniProt P0DP23) | binding, isothermal titration calorimetry | – | pH 7.4, 15 °C, C-lobe, CaV2.1 IQ domain, added: Ca2+ | – | ΔH | -3.27 ± 0.01 kcal/mol
FC(F)(F)c1cc(Nc2nc(Cl)nc(Cl)n2)cc(C(F)(F)F)c1 | – | reaction with N-acetyl-lysine, HPLC-MS | – | pH 10.2, added: N-α-acetyl-lysine | – | pseudo-first-order rate constant | 8.1 h⁻¹
COc1ccc(C(=O)N[C@@H]2CCc3c(C#N)cccc32)cc1 | WD repeat-containing protein 91 WD40 domain, residues 392–747 | binding, SPR single-concentration screen | – | 45 µM | – | SPR response | 2.7 RU and 10.1 RU
COc1ccc(C(=O)Nc2ccc(N3C4CCC3CN(c3ccccn3)C4)cc2)cc1 | GPCR panel | off-target binding panel | – | concentration not given | – | binding | no binding
COc1cc(/C=C/C(=O)C(=Cc2ccc([N+](=O)[O-])cc2)C(=O)/C=C/c2ccc(O)c(OC)c2)ccc1O | haemin | binding, isothermal titration calorimetry | – | pH 7.4, 37 °C | – | ΔH | -23.6 ± 0.136 kcal/mol
Nc1ncnc2c1ncn2[C@@H]1O[C@H](CO[P@](=O)(O)O[P@](=O)(O)O[P@@](=O)(O)S)[C@@H](O)[C@H]1O | GUK1 (Homo sapiens, UniProt Q16774, R148A) | binding, ITC | – | – | – | ΔH | -7.35 ± 0.46 kcal/mol
NC(=O)[C@@H]1CN(C(=O)c2cc3cccn3cn2)C[C@H]1c1ccccc1 | WD repeat-containing protein 91 WD40 domain, residues 392–747 | SPR | – | 45 µM | – | binding | -19% and -6%
CC[C@H](C)[C@H](NC(=O)[C@H](CCCCN)NC(=O)CNC(=O)[C@@H](NC(=O)[C@@H](NC(=O)[C@H](CCSC)NC(=O)[C@H](Cc1c[nH]cn1)NC(=O)CN)[C@@H](C)O)C(C)C)C(=O)N[C@@H](Cc1ccc(O)cc1)C(=O)N[C@@H](C)C(=O)N[C@@H](C)C(=O)N[C@@H](C)C(=O)N[C@@H](CCSC)C(=O)N[C@H](C(=O)N[C@@H](CCSC)C(=O)N[C@@H](CCC(=O)O)C(=O)N[C@@H](Cc1ccc(O)cc1)C(=O)N[C@@H](Cc1ccc(O)cc1)C(=O)N[C@@H](CCCNC(=N)N)C(=O)N[C@@H](CCC(N)=O)C(=O)N[C@@H](CO)C(=O)N[C@@H](CCCCN)C(=O)N[C@@H](C)C(=O)N[C@@H](CCCCN)C(=O)N[C@@H](CCCCN)C(=O)N[C@@H](CC(C)C)C(=O)N[C@@H](CCC(N)=O)C(=O)N[C@@H](C)C(=O)N[C@@H](CCSC)C(=O)N[C@@H](CCCNC(=N)N)C(=O)O)[C@@H](C)CC | Calmodulin-1, Ca2+-bound N-lobe (CALM1, Homo sapiens, UniProt P0DP23) | binding, isothermal titration calorimetry | – | N-lobe, CaV2.1 IQ domain, unit not given, added: Ca2+ | baseline: wild-type IQ domain | ΔΔG | 0.64
COCCOCc1ccc(-c2cc3onc(-c4ccccc4)c3c(=O)n2C)cc1 | Nuclear receptor subfamily 4 group A member 3, ligand-binding domain (Homo sapiens, UniProt Q92570) | reporter gene, Gal4 hybrid reporter | – | 3 µM | baseline: vehicle | activation | 1.21 fold
Cc1nc(CSc2nc(SCc3ccc(C(C)C)cc3)nc(=O)[nH]2)cs1 | DNA topoisomerase 2-alpha, ATPase domain (TOP2A, Homo sapiens, UniProt P11388) | 1H STD NMR, refers to: H2' and H4' protons | – | protein to ligand ratio 100 | – | STD amplification factor | 1.24
CC(C)[C@@H]1CC[C@@H](C)C[C@@H]1P(=O)(c1ccccc1)c1ccccc1 | Genome polyprotein NS3 helicase domain | DNA binding, inhibitor | hepatitis C virus | 100 µM, added: Cy5-dT15 DNA | – | inhibition | 2%
C=CC(C)(C)c1cc(/C=C/C(=O)c2ccc(O)cc2)c(OC)cc1O | Estrogen receptor (ESR1, Homo sapiens, UniProt P03372) | array formation | PRL-HeLa | – | baseline: EC50 ERβ over EC50 ERα | selectivity ratio | 5.52
NCCCCCC(=O)O | Genome polyprotein NS3 helicase domain | DNA binding, inhibitor | hepatitis C virus | 100 µM, added: Cy5-dT15 DNA | – | inhibition | 1%
Nc1ncnc2c1ncn2[C@@H]1O[C@H](COP(=O)(O)CP(=O)(O)OP(=O)(O)O)[C@@H](O)[C@H]1O | P2X purinoceptor 1 (P2RX1, Homo sapiens, UniProt P51575) | calcium influx | – | 3.16 µM | baseline: ionomycin response | calcium influx | 75% and 84.5% and 90.3% and 97.4%
O=C1CC2(CCCC2)CC(=O)N1CCCCN1CCN(c2ncccn2)CC1 | Genome polyprotein NS3 helicase domain | DNA binding, inhibitor | hepatitis C virus | 100 µM, added: Cy5-dT15 DNA | – | inhibition | 0%
C=C(CS(=O)(=O)c1cc(C(F)(F)F)cc(C(F)(F)F)c1)C(=O)OCC | – | reaction with N-acetyl-lysine, HPLC-MS | – | pH 10.2, added: N-α-acetyl-lysine | – | pseudo-first-order rate constant | 29.4 h⁻¹
C[S+](CC[C@H](N)C(=O)O)C[C@H]1O[C@@H](n2cnc3c(N)ncnc32)[C@H](O)[C@@H]1O (stereo partly drawn) | PolH (Streptomyces cacaoi) | substrate | – | pH 7.6, 25 °C, anaerobic, added: EP-UMP 250 µM | – | Km | 15 ± 3 µM
COc1ccc(CCCOC(Cn2ccnc2)c2ccc(OC)cc2)cc1 (stereo not drawn) | Genome polyprotein NS3 helicase domain | DNA binding, inhibitor | hepatitis C virus | 100 µM, added: Cy5-dT15 DNA | – | inhibition | 0%

For quick reference, copied from above:
SMILES | target or system | assay | test system | conditions | scale | measurement | result
O=C(CCl)N1N=C(c2ccc(Br)cc2)CC1c1ccc(Br)cc1 (stereo not drawn) | 14-3-3 protein sigma, with ERα phosphopeptide (SFN, Homo sapiens, UniProt P31947) | binding, fluorescence polarization | – | covalent ligand screen, added: phosphorylated ERalpha peptide | baseline: control | FP signal | 93%
Nc1ncnc2c1ncn2[C@@H]1O[C@H](CO[P@](=O)(O)O[P@](=O)(O)O[P@@](=O)(O)S)[C@@H](O)[C@H]1O | GUK1 (Homo sapiens, UniProt Q16774, R148A) | binding, ITC | – | – | – | ΔH | -7.35 ± 0.46 kcal/mol
O=C(COP(=O)(O)O)[C@@H](O)[C@H](O)[C@H](O)COP(=O)(O)O | Villin-1 (Homo sapiens, UniProt P09327) | thermal proteome profiling, refers to: VIL1 | HepG2 cell lysate | concentration not given, 57 over 37 °C, mean | baseline: compound over control | thermal stability ratio | 0.638
COCCOCc1ccc(-c2cc3onc(-c4ccccc4)c3c(=O)n2C)cc1 | Nuclear receptor subfamily 4 group A member 3, ligand-binding domain (Homo sapiens, UniProt Q92570) | reporter gene, Gal4 hybrid reporter | – | 3 µM | baseline: vehicle | activation | 1.21 fold
